Experimental data from different studies.
A part holds a random share of what one study measured. Positions count from the first letter of the parent shown.

Study 1
Target: Sal-like protein 4, full length isoform A (SALL4, Homo sapiens, UniProt Q9UJQ4, residues 1-1053)
UniProt Q9UJQ4, sequence (whole entry, looked up): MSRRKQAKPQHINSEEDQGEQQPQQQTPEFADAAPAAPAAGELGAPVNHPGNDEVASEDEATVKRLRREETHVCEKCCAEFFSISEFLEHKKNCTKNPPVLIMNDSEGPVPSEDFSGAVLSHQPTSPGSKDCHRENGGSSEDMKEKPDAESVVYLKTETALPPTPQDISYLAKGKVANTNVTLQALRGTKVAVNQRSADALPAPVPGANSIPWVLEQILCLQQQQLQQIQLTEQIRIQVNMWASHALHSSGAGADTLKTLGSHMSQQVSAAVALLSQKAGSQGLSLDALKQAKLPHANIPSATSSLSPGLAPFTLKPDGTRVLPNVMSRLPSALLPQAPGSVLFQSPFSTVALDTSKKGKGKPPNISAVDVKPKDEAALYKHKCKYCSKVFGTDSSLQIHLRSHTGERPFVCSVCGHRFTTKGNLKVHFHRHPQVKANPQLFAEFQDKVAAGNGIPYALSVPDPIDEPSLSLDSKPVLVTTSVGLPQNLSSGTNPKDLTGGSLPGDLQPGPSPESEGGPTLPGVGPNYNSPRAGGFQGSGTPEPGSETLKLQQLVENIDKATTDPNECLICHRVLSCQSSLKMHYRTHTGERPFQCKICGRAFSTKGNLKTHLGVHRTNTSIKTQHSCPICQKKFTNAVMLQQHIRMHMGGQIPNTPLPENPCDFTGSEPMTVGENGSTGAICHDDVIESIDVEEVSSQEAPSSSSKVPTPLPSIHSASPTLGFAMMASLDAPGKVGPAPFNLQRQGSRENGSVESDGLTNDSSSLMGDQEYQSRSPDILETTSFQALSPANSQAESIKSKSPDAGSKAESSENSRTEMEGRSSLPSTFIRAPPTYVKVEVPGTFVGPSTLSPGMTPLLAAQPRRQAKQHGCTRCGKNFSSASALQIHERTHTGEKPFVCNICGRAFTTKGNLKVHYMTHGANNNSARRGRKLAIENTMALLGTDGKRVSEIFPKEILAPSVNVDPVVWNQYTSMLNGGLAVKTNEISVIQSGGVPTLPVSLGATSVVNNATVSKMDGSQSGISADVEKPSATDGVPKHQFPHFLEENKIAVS
Method: universal PBM
Molecule type: double-stranded DNA, one strand shown
Sample: in vitro
Tested at: 600 nM
Setting: 8-mer, flanks averaged, mean of replicates
Direction: higher = stronger binding
The E-score of `GCCCAGGC` is reported as -0.298.
For `GAACAGGA`, the E-score was -0.19.
For `AAATTCCG`, the E-score was 0.0957.
`CCCCACCG` has an E-score of -0.269.
For `GACACTAC`, the E-score was -0.0507.
`AGTTGTTA` has an E-score of 0.138.
With `AATTAAGA` the E-score was 0.282.
`ACTTCATC` has an E-score of 0.13.
`AGAACTAC` has an E-score of 0.05.
`CCTAACTC` gave an E-score of -0.247.
With `CGCGCTAG` the E-score was -0.174.
`ATACAAGG` gave an E-score of 0.168.
`CCGACGAG` gave an E-score of -0.22.
For `ACCCGGTG`, the E-score was -0.357.
With `GCCAAGTA` the E-score was -0.174.
`CCTCGAAG` has an E-score of -0.122.
With `GCGAAATA` the E-score was 0.162.
For `ACGCTCAC`, the E-score was -0.133.
`CTAATTTC` has an E-score of 0.136.
`AACGGTGC` gave an E-score of -0.175.
For `GGGACTCA`, the E-score was -0.368.
With `AATAGCGA` the E-score was 0.143.
For `ATGTAAAT`, the E-score was 0.249.
`ACATGCGC` gave an E-score of -0.151.
With `GACGTGGC` the E-score was -0.274.

Study 2
Target: Histone acetyltransferase KAT6A, winged helix 1, GST fusion (KAT6A, Homo sapiens, UniProt Q92794, residues 1-85)
Method: protein binding microarray
Molecule type: double-stranded DNA, one strand shown
Sample: in vitro
Tested at: not given
Setting: 8-mer, flanks averaged, mean of 2 arrays, mostly near background
Baseline: not given
Direction: higher = stronger binding
Residues (chain): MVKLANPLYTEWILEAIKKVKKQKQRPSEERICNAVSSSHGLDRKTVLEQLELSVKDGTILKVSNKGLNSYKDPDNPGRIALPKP
For `CAACAAGA`, the E-score was -0.155.
For `CAGAGAAA`, the E-score was -0.113.
`AGTGTACC` gave an E-score of -0.0627.
`GAAGATTA` has an E-score of 0.0727.
For `ATAGGCGC`, the E-score was 0.229.
`GCTGCTAA` gave an E-score of -0.121.
`GGTTGGTA` has an E-score of 0.117.
With `GCTTCACA` the E-score was -0.0837.
For `ATGGTACC`, the E-score was 0.0477.
The E-score of `CGTTGTCA` is reported as 0.0654.
The E-score of `CCAATCGC` is reported as -0.0433.
For `CCCCGTCC`, the E-score was 0.33.
For `AAGGCCCA`, the E-score was -0.258.
`ACGCTGAG` gave an E-score of 0.099.
For `AGTTATGG`, the E-score was -0.173.
The E-score of `GTAGGGGA` is reported as -0.161.
The E-score of `AGTTCTGC` is reported as 0.19.
`ATCACCGA` has an E-score of -0.0983.
With `GAAAGTTC` the E-score was -0.0585.
For `TCGAGACA`, the E-score was -0.137.
The E-score of `ATCGGCAA` is reported as 0.129.
The E-score of `GCTTCCGA` is reported as 0.133.

Study 3
Target: Fragile X messenger ribonucleoprotein 1, C-terminal low-complexity region (Fmr1, Mus musculus, UniProt P35922)
Method: RNA Bind-n-Seq
Molecule type: RNA
Sample: in vitro
Tested at: 200 nM
Setting: whole 134-nt RNA, ends assumed
With: 150 mM KCl
Baseline: input library
Direction: higher = stronger binding
Shared flanks, not repeated: GGGAGUUCUACAGUCCGACGAUC … UGGAAUUCUCGGGUGUCAAGG
`CUGCGCGCGGAUUUCCCUCUCUGAGGAAGUUUAUCCUUGUGCCUUCUGGAGGAUUUCUCUCUAGCUCGACUCACUCUGGACUGACUCGCU` has a log2 enrichment of -0.678.
For `CUGUGCUACACAUCGUAUGUACCGAAUCGGGUUUUUUUGGGUUUUUUUGGGUUUUUUUGGGGAAAGUAUUAUGUUACGCCGUUCGGAUCU`, the log2 enrichment was -0.174.
`CCUGUGCUACACAUCGUAUGUACCGAAUCGGGUUUUUUGGGUUUUUUGGGUUUUUUGGGGAAAGUAUUAUGUUACGCCGUUCGGAUCUGC` gave a log2 enrichment of -0.43.
`CCUCAAGUCCUGUGCUACACAUCGUAUGUACCGAAUCGGGAGGGGAGGGAGGGAAAGUAUUAUGUUACGCCGUUCGGAUCUGCACUUCCA` has a log2 enrichment of 1.39.
For `UGUGCUACACAUCGUAUGUACCGAAUCGGGGUUUUUUUGGGGAAAAAAAGGGGAAAAAGGGGAAAGUAUUAUGUUACGCCGUUCGGAUCU`, the log2 enrichment was -0.0869.
The log2 enrichment of `AAGUCCUGUGCUACACAUCGUAUGUACCGAAUCGGGAAAAAGGGUUUUUGGGUGGGAAAGUAUUAUGUUACGCCGUUCGGAUCUGCACUU` is reported as 0.849.
The log2 enrichment of `GCAGGAAGUAAAAACAAAUGGAAAUGCUUCGGAUAGUGGCAGGGGUGGGGAUUGCUAAGGAAAGGGUGGGAUGGGAGUGGGUAAAGAGUU` is reported as 0.271.
With `CACAGACAACACGCACCCACACAGACACAGAGGGAAGGGGUUGGGAUGGGGACAGGGUGCACAGCAGGGCGGGGUAUGACCCCAGCCCCU` the log2 enrichment was 1.35.
With `CACAGACAACACGCACCCACACAGACACAGAGGGAAGGGGUUGGGAUGGGGACAGGGUGCACAGCAGGGUGGGGUAGGACCCCAGCCCCU` the log2 enrichment was 1.26.
`GCAGGAAGUAAAAACAAAUGGAAAUGCUUCGGAUAGUGGCAGGGGUGGGGGUAAAUAAGGAAAGGGUGGGAUGGGAGUGGGUAAAGAGUU` gave a log2 enrichment of 0.0269.
The log2 enrichment of `UAACUUUAGAGGAGGAUCUGAUGGAUAUGGCAGUGGACGUUGAUUUGGGGAUGGCUAUAAUGGGUAUGGAGGAGGACCUGGAGGUGGCAA` is reported as 0.237.
The log2 enrichment of `AAGUCCUGUGCUACACAUCGUAUGUACCGAAUCGGUUUGGAAAAAGGAAAAAAAGGAAAGUAUUAUGUUACGCCGUUCGGAUCUGCACUU` is reported as -0.786.
The log2 enrichment of `CUGUGCUACACAUCGUAUGUACCGAAUCGGGUUUUUUUGGGAAAAAAAGGGUUUUUUUGGGAAAGUAUUAUGUUACGCCGUUCGGAUCUG` is reported as -1.56.
`AGUCCUGUGCUACACAUCGUAUGUACCGAAUCGGGGAAAAGGGGAAAAGGAAAAGGGGAAAGUAUUAUGUUACGCCGUUCGGAUCUGCAC` has a log2 enrichment of 0.274.

Study 4
Target: RNA binding protein fox-1 homolog 2, RRM domain, GST-SBP tag (RBFOX2, Homo sapiens, UniProt O43251-10, residues 100-194)
Method: RNA Bind-n-Seq
Molecule type: RNA
Sample: in vitro
Tested at: 365 nM
Setting: natural RNA segment, single round, ends assumed
Baseline: no-protein control
Direction: higher = stronger binding
Shared flanks, not repeated: GGGAGUUCUACAGUCCGACGAUC … UGGAAUUCUCGGGUGCCAA
Residues (chain): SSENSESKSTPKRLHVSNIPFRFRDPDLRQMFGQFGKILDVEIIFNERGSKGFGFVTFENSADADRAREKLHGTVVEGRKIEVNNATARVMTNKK
Under “RBNS enrichment (R)”, `GGCUGGACCACCAUCUGUACCGUUGCGUCCACAGUGUGCAUUCUGAGGUAUCACUCAGGGUGCCAAGUACACACUCAUCCUCCAGGCAACAGAGAGGAUGGGGCUCCCCG` is recorded as 0.193.
Under “RBNS enrichment (R)”, `CAAUAAUCAUAUCUCUUUUGACAUUUUGGAAAUUUUUUUAAUUUUACAAGUACAUUUAACAGAUCAUUUAUAAAGCAGGAGUCCAUUUUAACACUUACCGACUUUUUUUG` is recorded as 0.422.
For `ACCUCCAGGUGGAGGAACCACACGGCAGAGUUCUGUGUGUCUGUGUUGAAGCUAGAGGCGGCUAGAGCAACCCUGGCUGGUAGAGGCCUGGCACACCCUAGUAGCCGGGU`, “RBNS enrichment (R)” read 0.745.
`AUUACAAAUAGAUCUAGGAACUGGGUCAUAGUUGGCUGGUGGGACAUUAUAGUUGUAAAGCUCAAGUUAAAAUAAAAAUAAAAGUGAUAGGACUAAGUCACCUAUCCAAG`: “RBNS enrichment (R)” 0.415.
For `AGCUGCAGACAUGAGCCUUCCCGCCUCAACACAUCCUCCGUAGAAGGGACCCCCUCCCUGCUCCUGGGUCCCUGCGUGUGUGGGUGUGUGUCCGUGUGCAUGGCCUGUUU`, “RBNS enrichment (R)” read 3.65.
`AGCAGCACCUCCCUCAUGGCUGUCUGCACCUGCCCACCUACCUGGCUCUGACCGUUCCCACCACCAUCUGCAUGUCCCCACUGGGCCUGAGUCUAGCCUGGGAGCCAGGA` — result for “RBNS enrichment (R)”: 16.5.
For `CCCCCCGGGGGGGGCAUUCGAAUCACCUCAGUUGCUGCUGUAAUAAAGUCUACUUUUUGCUAAAGCAUCUUGUGUUGUGCUUGCGGCUCAGUGGGUGGCACCGCCGCUUC`, “RBNS enrichment (R)” read 0.259.
Under “RBNS enrichment (R)”, `CUGUACAUUAUCUUUGGUAACACUAGACUAGUGUAGUCUUGGGGAACACACCGAGGAAACAUGUAGCGAGAAUCACAUACAAGGCUUGGUGUUUCAUAAGCAUGCCUGCU` is recorded as 1.38.
For `AAAACUAGGGUGGUUUGCAGGUAUCCAAAAAUAUGCUAUGACAGAACAAAAUUGUGGUAUUCAUGACCCAUUUAAUUUACUGAAAAAUCAUAACUGCUGUCCUGCCUGCU`, “RBNS enrichment (R)” read 0.283.
For `UUAUAAGAUUUCCUCUGACUUGUUUCUUUGUGGUUCCCAAAAAAAAAAAAAAAACCUCAAAAAUUAAGUGCUAUUUCAUUCCUUCUUUCUCUAUCAAAAGAAAGGGAAGG`, “RBNS enrichment (R)” read 0.551.
Under “RBNS enrichment (R)”, `UUCCUUCCCCUCAUUUAUAUCCUUAAUUCCUUGAGCUGCUGAGGUUUAGAACUGGUAGAGCCUACCUAAGGGUCUCCCCAUCUCCAGGAACUCUCAUGUAGGAUUUUUAA` is recorded as 0.433.
Under “RBNS enrichment (R)”, `GGAGCAGACUGUUUUAAGUUGCUCAGGAGCCUGAUGGAACCAUGAACCGAGACUCUUCUCUGUUUCCUGCCAAGACCUCAUCUGCACUAAUGCCUUCUCCCUGACCUUGA` is recorded as 0.553.

Study 5
Target: CCNF, cyclin fold, Cln2 fusion (human)
Method: yeast growth competition, sequencing
Sample: yeast
Setting: strong parent motif
Baseline: not given
Direction: higher = stronger binding
Parent: CCP110 docking peptide (human); EKVKRRLDLDIDG
Under “normalised enrichment score”, `EKVKRALDLDIDG [R6A]` is recorded as 2.81.
Under “normalised enrichment score”, `EKVKKRLDLDIDG [R5K]` is recorded as 4.01.
Under “normalised enrichment score”, `EAVKRRLDLDIDG [K2A]` is recorded as 6.3.
For `EKVARRLDLDIDG [K4A]`, “normalised enrichment score” read 6.22.
For `EKVKRRLDLDIAG [D12A]`, “normalised enrichment score” read 6.37.
Under “normalised enrichment score”, `EKVKRRLDLAIDG [D10A]` is recorded as 5.05.
Under “normalised enrichment score”, `EKVKRRADLDIDG [L7A]` is recorded as 0.0662.
